Experimental data pooled from the literature.
Each numbered part is a random draw from the data of one study; scales do not carry over between parts. Substitutions count along the parent as printed.

Block 1 — technique: DHFR PCA, deep sequencing; sample: yeast; added: (+)-ABA 58 µM; reference: wild-type fitted maximum; direction: higher = stronger binding
Target: ABI1, truncated, D143A, DHFR fusion (Arabidopsis thaliana)
Setting: methotrexate growth selection, single substitutions
Starting sequence: PYL1, truncated, DHFR fusion (Arabidopsis thaliana); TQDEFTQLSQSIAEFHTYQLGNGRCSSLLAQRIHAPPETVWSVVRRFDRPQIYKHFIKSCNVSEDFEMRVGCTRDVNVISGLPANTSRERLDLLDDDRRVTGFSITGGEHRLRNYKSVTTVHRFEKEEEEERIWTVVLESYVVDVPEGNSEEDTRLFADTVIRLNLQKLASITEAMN; partner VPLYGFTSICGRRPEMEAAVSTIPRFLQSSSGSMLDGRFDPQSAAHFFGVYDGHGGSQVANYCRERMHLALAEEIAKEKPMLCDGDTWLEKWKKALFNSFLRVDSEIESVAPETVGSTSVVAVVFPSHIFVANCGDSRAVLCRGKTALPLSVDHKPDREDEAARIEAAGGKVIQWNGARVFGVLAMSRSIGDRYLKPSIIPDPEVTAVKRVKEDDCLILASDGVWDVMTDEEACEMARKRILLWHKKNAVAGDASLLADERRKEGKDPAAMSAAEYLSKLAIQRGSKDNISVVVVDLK
Variant | relative binding score [%]
F56P | -0.387
D96Y | 21
Y53I | 11.1
L112Y | 5.28
A30F | 93
V142A | 79.3
S26G | 85.5
S140A | 1.44
F124E | 86.5
D3C | 89
V136Q | 34.4
L28I | 84.8
F56R | -5.36
H110T | 37.4
Y18A | 70.1
L20N | 87.9
L93D | 27.8
F103E | 0.428

Block 2 — target: CCNA1, cyclin fold, Cln2 fusion (human); technique: yeast growth competition, sequencing; sample: yeast; setting: weak parent motif; reference: not given; direction: higher = stronger binding
Starting sequence: CDKN1B docking peptide (human); PSACRNLFGPVDH; partner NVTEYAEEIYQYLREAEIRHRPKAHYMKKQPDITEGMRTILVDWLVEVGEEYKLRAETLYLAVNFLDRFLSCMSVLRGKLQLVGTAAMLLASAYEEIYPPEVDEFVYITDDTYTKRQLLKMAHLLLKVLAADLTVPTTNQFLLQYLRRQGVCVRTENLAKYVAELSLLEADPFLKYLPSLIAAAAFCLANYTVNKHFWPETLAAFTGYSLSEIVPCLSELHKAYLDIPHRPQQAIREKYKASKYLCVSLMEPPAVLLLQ
Variant | normalised enrichment score
V11R | 0.205
F8C | 0.13
P1D | -0.103
V11G | 0.367
C4P | 0.143
R5T | 0.123
V11L | 0.375
N6Q | 0.346
C4A | 0.491
V11S | 0.448
D12A | 0.505
G9A | 0.462
N6I | 0.166
R5K | 0.236
S2R | 0.449
P10A | 0.372
P1V | 0.442
A3W | 0.379
F8W | 0.326
H13E | 0.365
S2I | 0.424
V11H | 0.585
L7D | 0.222
V11M | 0.277
S2C | 0.22

Block 3 — technique: RNA Bind-n-Seq; molecule type: RNA; sample: in vitro; concentration: 200 nM; setting: whole 134-nt RNA, ends assumed; added: 150 mM LiCl; reference: input library; direction: higher = stronger binding; each molecule: 7-deaza-guanosine replaces G
Target: Ras GTPase-activating protein-binding protein 1, full length (G3BP1, Homo sapiens, UniProt Q13283)
Chain of UniProt Q13283 (whole entry, looked up): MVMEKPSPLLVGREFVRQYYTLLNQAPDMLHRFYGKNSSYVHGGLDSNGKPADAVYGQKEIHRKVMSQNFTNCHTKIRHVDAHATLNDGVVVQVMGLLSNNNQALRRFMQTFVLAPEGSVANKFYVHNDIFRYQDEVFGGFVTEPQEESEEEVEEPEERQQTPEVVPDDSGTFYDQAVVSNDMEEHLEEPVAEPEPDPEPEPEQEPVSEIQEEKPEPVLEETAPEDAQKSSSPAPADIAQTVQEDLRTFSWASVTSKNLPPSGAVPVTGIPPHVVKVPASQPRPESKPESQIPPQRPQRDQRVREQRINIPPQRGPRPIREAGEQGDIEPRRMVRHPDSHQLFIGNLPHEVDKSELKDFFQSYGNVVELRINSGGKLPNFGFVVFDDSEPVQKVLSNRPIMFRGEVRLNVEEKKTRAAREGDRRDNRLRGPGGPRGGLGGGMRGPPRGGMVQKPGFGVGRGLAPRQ
Oligonucleotide | log2 enrichment
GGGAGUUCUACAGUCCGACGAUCCCUGUGCUACACAUCGUAUGUACCGAAUCGGGAAAAAAAGGGUUUUUGGGUUUUUUUGGGAAAGUAUUAUGUUACGCCGUUCGGAUCUGCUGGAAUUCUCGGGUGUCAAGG | -1.88
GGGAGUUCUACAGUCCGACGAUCCUGUGCUACACAUCGUAUGUACCGAAUCGGGGUUUUUUUGGGGAAAAAGGGGAAAAAGGGGAAAGUAUUAUGUUACGCCGUUCGGAUCUGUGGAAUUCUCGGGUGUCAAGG | -0.513
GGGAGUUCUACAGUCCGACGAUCUCCUGUGCUACACAUCGUAUGUACCGAAUCGGGAAAAAGGGAAAAAAAGGGAAAAAGGGAAAGUAUUAUGUUACGCCGUUCGGAUCUGCAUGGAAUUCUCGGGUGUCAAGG | 0.436
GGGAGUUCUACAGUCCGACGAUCAAGUCCUGUGCUACACAUCGUAUGUACCGAAUCGGGAAAAAGGGAGGGAAAAAGGGAAAGUAUUAUGUUACGCCGUUCGGAUCUGCACUUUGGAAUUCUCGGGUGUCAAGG | 0.0176
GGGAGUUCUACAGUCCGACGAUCUGGGAGGUGGAUUUUGUUUAUUUUUUUAGCUCAUUUCCAGGGGUGGGAAUUUUUUUUUAAUAUGUGUCAUGAAUAAAGUUGUCUUUGAAAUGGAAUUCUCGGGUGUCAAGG | -0.2
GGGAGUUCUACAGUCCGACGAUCCACAGACAACACGCACCCACACAGACACAGAGGGAAGGGGUUGGGAUGGGGACAGGGUGCACAGCAGGGCGGGGUAGUACCCCAGCCCCUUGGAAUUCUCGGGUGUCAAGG | 1.01
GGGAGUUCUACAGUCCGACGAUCGUCCUGUGCUACACAUCGUAUGUACCGAAUCGGGCCCCCGGGGCCCCCGGGCCCCCGGAAAGUAUUAUGUUACGCCGUUCGGAUCUGCACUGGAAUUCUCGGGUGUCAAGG | -0.272
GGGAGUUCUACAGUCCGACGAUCUUGCAGGAGCCGCCGCGCCUCGGCCUAGCAUGUCGGAAGCGGGCGAGGAGCAGCCCAUGGAGACGACGGGCGCCACCGAGAACGGACAUGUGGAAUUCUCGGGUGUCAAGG | -0.369

Block 4 — technique: protein binding microarray; molecule type: double-stranded DNA, one strand shown; sample: in vitro; concentration: not given; reference: not given; direction: higher = stronger binding
Target: Histone acetyltransferase KAT6A, both winged helices, GST fusion (KAT6A, Homo sapiens, UniProt Q92794, residues 1-181)
Setting: 8-mer, flanks averaged, mean of 2 arrays, mostly near background
Target sequence (chain): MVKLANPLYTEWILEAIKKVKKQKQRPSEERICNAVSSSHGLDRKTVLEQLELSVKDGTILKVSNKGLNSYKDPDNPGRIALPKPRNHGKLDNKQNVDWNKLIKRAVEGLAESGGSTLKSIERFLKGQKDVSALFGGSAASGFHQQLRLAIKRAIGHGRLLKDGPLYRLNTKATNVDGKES
Oligonucleotide | E-score
AAAGCACG | -0.115
ATGGTTTG | -0.0667
CTGTATAA | -0.1
ACATATCA | -0.0762
TAGGGTAA | -0.117
ATCCATAG | -0.0506
CATAGCCC | -0.158
GCCTTTCC | 0.146
CGGAACAA | 0.257
GATGCCGA | 0.235
AGACGAGG | -0.192
GCCTTGCA | -0.0539
AACTCACC | -0.145
ACCCAACT | -0.297
CCTGTATA | -0.0638
ACTTCGTC | -8.5e-05
AAGTCGAA | -0.145
AGAACTGA | -0.0345
ATGAATTG | 0.0714
AAGCCCGA | 0.0251
ACACGTAT | 0.0221
ATGAGGTC | -0.163
AAGCTAGG | -0.0623
CGCGAGCA | 0.126
ATAGAGAT | -0.0453
